Assay results from different studies.
A part holds a random share of what one study measured. Positions count from the first letter of the parent shown.

Series 1
Target: Interferon regulatory factor 5, full length, phosphomimetic (IRF5, Homo sapiens, UniProt Q13568-2, residues 1-514, K96S/S451D/S453D/S456D/S462D)
Technique: protein-binding microarray
Form: double-stranded DNA, one strand shown
Matrix: in vitro
Tested at: 250 nM
Notes: 60-bp whole probe
Together with: salmon DNA 0.4 mg/ml
Relative to: random background probes
Direction: higher = stronger binding
Quantity: log fluorescence
Constant ends, left off below: GCCTAGCAC … GTCTTGATTCGCTTGACGCTGCTG
GACGGGCTGGGTATCGGGACGTGCTAG: 0.117 z-score
TTAGGTCTGGACTTTCGGTTAGTGCTA: 9.04 z-score
GACGGTATCCTTTTCGTGACGTGCTAG: 0.562 z-score
CACTTTCTTTACTTCACTCTGTGCTAG: 3.35 z-score
GTGGTTCTGCTTCTTAGCGCGTGCTAG: -0.203 z-score
GACGATCTCCGTCTCGAGACGTGCTAG: -0.0213 z-score
TTAGGTTTCGGGACTGCGTTAGTGCTA: 6.21 z-score
TTAGGTCTCGGTTTCGTTTAGTGCTAG: 5.76 z-score

Series 2
Target: RNA binding protein fox-1 homolog 2, RRM domain, GST-SBP tag (RBFOX2, Homo sapiens, UniProt O43251-10, residues 100-194)
Technique: RNA Bind-n-Seq
Form: RNA
Matrix: in vitro
Tested at: 365 nM
Notes: natural RNA segment, single round, ends assumed
Relative to: no-protein control
Direction: higher = stronger binding
Quantity: RBNS enrichment (R)
Constant ends, left off below: GGGAGUUCUACAGUCCGACGAUC … UGGAAUUCUCGGGUGCCAA
Construct (chain): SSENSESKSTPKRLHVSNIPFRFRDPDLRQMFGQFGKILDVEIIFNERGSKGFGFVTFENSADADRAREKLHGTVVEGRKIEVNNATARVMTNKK
UUGUCUCCUCUAAUAAGCCCCACCCUCCCCGCCUGGGCUCCCCUUGCUGCCCUUGCCUGUUCCCCAUUAGCACAGGAGUAGCAGCAGCAGGACAGGCAAGAGCCUCACAA: 0.393
GUACCUCUUAAGGGACUCUAAUAUAUGCUAACGCUGGUCCUCUUAGCUCUGUGCUCUCACCAGACAAUGAAUGAACUAUGAAAGAUUUAGUCAACAGAAACUAUUUUAGG: 0.467
UAUGAUAAACGUCUUCCAUAGAACUUACUAUAGUCAAAUAACAUAAAAAAACUGACCUAUACAAGUGUUAAGAACCUAAUAUGACAGACAUGAAAUAUGUAACUAGGAAA: 0.335
GUGGGCAGACCUCUUAACCUUAUAGAUGGUCAGUGCGACCUCUAGUGGUCUCAUGGCGUGUGGCACAACCCCCCUCCCCAGGGCUCAGCUUAAUGUGCCCUCUCCCCCCA: 0.606
UCUCUAAAGAACCUUAACUAAUGCAUCAUAAGAAUUCUCCUUUCUUUGUCUUAUGGUAUUUUUUAGGUCAUUUCUCUUCUAUAUCAGGCUCUUGUUAAUUAGUCUUUUUU: 1.13
CCCGUCUCCCAGGGCAUUUCCCCCUCCCGUGCACAGCCAUUGGUGGCAAAUCCUUCUGCCAUCAGCUGUGUGGGCUUGCCUCUUUGAGCUCAUCUCCCCUCACAGGCUGU: 0.381
CAUGCUGUAAGCUCAUAGAAGUCACUGUAACUGUAGUGUGUCUGCUGUUACCUAGAGGGUCUCACCUCCCCACUCUUCACAGCAAACCUGAGCAGCGCGUCCUAAGCACC: 0.264
UUUCUCUGUUGGUUUCUUCCUCAAGUUUGCAUUGUUUUCUUUUGUUAAAAUUAGAGAUUUCUUUUUAUUUUCCAGUUAUAGUAAUACUAGCUGUCAGCUUAAACCCUCUG: 0.57

Series 3
Target: Protein max, full length (MAX, Homo sapiens, UniProt P61244-2, residues 1-151)
Technique: protein-binding microarray
Form: double-stranded DNA, one strand shown
Matrix: in vitro
Tested at: not given
Notes: k-mer, scored over probes, only values ≥0.25
Direction: higher = stronger binding
Quantity: E-score
CGTGTCTC: 0.397
GCGCCACC: 0.27
AGCGTGGG: 0.437
ACGTGCCA: 0.448
AACGTGGA: 0.425
CACACATG: 0.447
AACATGCT: 0.389
CCCCTCCC: 0.25

Other studies, line by line
Parent: PafA, mature enzyme, eGFP fusion (Elizabethkingia meningoseptica, UniProt Q9KJX5); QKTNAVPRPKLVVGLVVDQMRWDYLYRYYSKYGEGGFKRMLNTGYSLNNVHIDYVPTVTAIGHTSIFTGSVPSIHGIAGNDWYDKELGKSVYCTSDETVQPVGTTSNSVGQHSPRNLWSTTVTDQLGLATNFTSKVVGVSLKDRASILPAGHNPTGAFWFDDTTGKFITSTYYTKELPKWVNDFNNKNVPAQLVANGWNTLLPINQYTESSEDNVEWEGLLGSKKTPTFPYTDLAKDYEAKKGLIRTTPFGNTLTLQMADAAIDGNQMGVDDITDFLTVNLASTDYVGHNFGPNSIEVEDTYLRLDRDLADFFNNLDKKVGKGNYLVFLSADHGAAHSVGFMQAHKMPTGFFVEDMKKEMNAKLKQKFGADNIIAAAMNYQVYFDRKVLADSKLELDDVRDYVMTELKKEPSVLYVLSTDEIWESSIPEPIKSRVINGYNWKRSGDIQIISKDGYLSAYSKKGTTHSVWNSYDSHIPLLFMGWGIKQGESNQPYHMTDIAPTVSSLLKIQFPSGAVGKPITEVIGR
D371V
oxyanion analog dissociation constant (tungstate, free oxyanion; microfluidic competitive inhibition; in vitro, cell-free expressed; not given, derived from inhibition constants, unchanged parent 2230 nM; lower = stronger binding): 2.25 µM

A few entries again (series 1):
TTAGGTTTCGGGACTGCGTTAGTGCTA: 6.21 z-score
